# Measurements gathered from unrelated publications.
# Each numbered part is a random draw from the data of one study; scales do not carry over between parts. Positions count from the first letter of the parent shown.

# Series 1 — method: RNA Bind-n-Seq; form: RNA; matrix: in vitro; concentration: not given; baseline: input RNA pool; reading: higher = stronger binding
# Target: RING finger protein unkempt homolog, zinc fingers 1-6, GST-SBP tag (UNK, Homo sapiens, UniProt Q9C0B0, residues 30-357)
# Setting: RNA with constant flanks, human-mouse chimeric sites, ends assumed
# All sequences stand within: GGGAGUUCUACAGUCCGACGAUC … CAACAGAGGAUUGAGCAUCA
# Construct (chain): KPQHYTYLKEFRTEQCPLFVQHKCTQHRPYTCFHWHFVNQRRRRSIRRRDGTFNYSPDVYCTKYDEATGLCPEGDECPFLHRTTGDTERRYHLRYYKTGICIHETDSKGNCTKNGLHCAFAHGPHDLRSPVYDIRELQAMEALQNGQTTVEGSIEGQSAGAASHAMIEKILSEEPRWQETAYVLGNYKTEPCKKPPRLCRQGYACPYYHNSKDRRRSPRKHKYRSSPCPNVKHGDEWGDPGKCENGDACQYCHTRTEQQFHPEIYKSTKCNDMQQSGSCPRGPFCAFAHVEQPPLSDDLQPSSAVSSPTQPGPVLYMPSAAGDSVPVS
Strand,bound/input enrichment [ratio]
CUUAUGGCUGCAGAAACAGGAAGUGGAAAAACUGGUGCAUUUAGUAUUCCCGUUAUCCAGAUAGUGUAUGAAACUCUGAAAGACCAACAGGAAGGAAAGAAAGGGAAAACAACAAUUAAA,1.29
ACCUCCCCCUCCCGCCUGCUUUUUGAACCGCUUUUUGGAAAGUUUUUGGCGUUUCUUUUCCUUCCCCAUACAAAGUGAUUACAGUUUAGAGUCUAUGGGUCUAUCGAAGGGCUUGACGGA,0.766
GCGGCAGAAUCAUGGAGGACAUGAUGGAGCUCCCCAAAGCGCGCGUCAACGCCAGCAUGUUACCACAGUAUAUCGACAAGCCUGUCUGCUUCGUGGGGAAGCUGGAAAAGAUUCAUCCCA,0.141
AGAUUCCCCCUCCUGAGGCCUUCUCCAAAGUUGGAGUCUCUUACAGAUGCCUCAUCCCCUGUUAGCGUUUUAGUUUGGACCACCCAGCCUUGGACGAUUCCCGCCAACCAGGCAAUUUGC,1.69
GGGACUGAUUCAUUCCAAGGACAGGCCACCCCAUUUGAUGCCUGGACUGAUGACAGUAUGGAAGGGCCUAGUCAAAAUGUUGAAGCUGAGUCAAUUCAGGAUGCCAUGCAUAUGGCAGAG,0.297
GAAACAUUUAAAUUUAAAGAAGCUGUUGUUUUAGGGAGCACGGACUUUCUAGAAGAUGAUAUAGAGAAAAUUGUAGAAGAACUGGGGAAAGAGUAUAAGGGCAACGCCUACCAUCUGAUG,1.82
CUGUGUGUGCUGAAUAAAUGGCUUGUAAGAACUGUCCUCCAAGCUGUAACCCAUGCUGUUAUUAUAGUUGCUGCAAAAUGUUCUUCCUGAUAUUGAUUUUAUUUGUUCUGACUCUCCCUC,1.27
AAAGUGGACUAUGGUGAGUACAUGGAUAAAAACAAUGUGAGGCGGCAAGCAACAACAAUCAUAGCUGAUAACAUUAUAUUUCUGAGUGACCAGACGAAAGAAAAGGCAUAGAACGGAUGA,1.67
UGACAAGGGCACUGCAGAGCCAUGCCUUUCCUUGACAUCCAGAAAAGGCUGGGCAUCAGCCUGGACCGGCACUUUAUGUUCCUAAGCGGUGAACAGCCCUAUAAGAACGCCGCUCGGUGC,0.0611
GGCCUGGGACCGUCCUGGGCUAGUACAAAUAGCGGCAGUGGAGGCUCGAGAGGAAAGUUGUUAGUGGGAGGCAGUGGAGAGGUCGUCCAUGUACGGUCCUUUACUCGAUAGAUGUGUUCU,0.506
UCGGAUGCUGUGCUGGGUCACUUUUCAUAUCCUGAUCCUUCACAGUGGACAGAUGAAGAACUGGGAAUCCCUCCUGAUGACGAGGACUGACACUGUAAACUCUCUGGACGAGUAGGAGCA,0.698

# Series 2 — target: CCND2, cyclin fold, Cln2 fusion (human); method: yeast growth competition, sequencing; matrix: yeast; setting: weak parent motif; baseline: not given; reading: higher = stronger binding
# Starting sequence: BORA docking peptide (human); SSLRRKLFLDGNG; partner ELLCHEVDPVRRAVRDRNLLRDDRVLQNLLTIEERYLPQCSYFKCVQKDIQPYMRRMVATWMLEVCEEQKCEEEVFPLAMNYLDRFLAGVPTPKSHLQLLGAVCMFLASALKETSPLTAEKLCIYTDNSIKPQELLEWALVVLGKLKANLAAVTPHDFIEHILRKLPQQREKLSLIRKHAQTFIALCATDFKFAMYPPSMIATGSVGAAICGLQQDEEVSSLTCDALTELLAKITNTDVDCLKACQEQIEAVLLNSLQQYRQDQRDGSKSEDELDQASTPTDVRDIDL
Variant,normalised enrichment score
SSLRAKAFLDGNG [R5A L7A],-0.186
SSLRRKLFLAGNG [D10A],-0.0993
SSLRRALFLDGNG [K6A],-0.0702
SSLRKKLFFDGNG [R5K L9F],0.331
SSLRRKLFADGNG [L9A],-0.443
SSLRKKLFLDGNG [R5K],-0.0717
SSLRAKLFLDGNG [R5A],-0.0313
SSLARKLFLDGNG [R4A],0.0335
SSLRKKLLLDGNG [R5K F8L],0.15
SSARRKLFLDGNG [L3A],-0.193
SSLRRKLFLDANG [G11A],0.23

# Series 3 — method: RNA Bind-n-Seq; form: RNA; matrix: in vitro; concentration: 365 nM; baseline: no-protein control; reading: higher = stronger binding
# Target: RNA binding protein fox-1 homolog 2, RRM domain, GST-SBP tag (RBFOX2, Homo sapiens, UniProt O43251-10, residues 100-194)
# Setting: natural RNA segment, single round, ends assumed
# All sequences stand within: GGGAGUUCUACAGUCCGACGAUC … UGGAAUUCUCGGGUGCCAA
# Residues (chain): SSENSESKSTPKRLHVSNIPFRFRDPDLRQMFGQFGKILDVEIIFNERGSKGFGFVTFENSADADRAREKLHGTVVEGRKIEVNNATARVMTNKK
Strand,RBNS enrichment (R)
UUUUUGUAGUUGUGGCAUCUUGUUGACAUCGAAUAUGACUUUGAUAAUAAAUACCGGUUCCUGAAAACGGCCUGCUUGUGUGUGCUGUGUGGGCAACCACGCGAGGUGUG,0.997
CCAGGUACUGAGCGUCAGGCUCUGCAUAGCAGUUAAGCAGCACUGGUAGUGGUCUGCCGUGCAGGGGAUGCCUGCUAUGCAGGUGAUGCCCUCCCAGGAUCUAUUCCUGG,0.314
AGAGGCAGCCUGCUGCCUGGAUGCUGGUCUCCCCAGCAUCACUGUUCCCAUGGAGCUCAGGUCAGGCUCUGUAUUCAGACCGAGGGUUUGUGUGAGGCUCAGAGCAAAUG,0.275
CGUUUGGUACGUAUCAGUGAAUUAUUGGACAGUUAGCUUAUAACUUAUAGGCAGUCACUAUAAAUUAUAAUUGUGGGCACUAGCAAUAUACAUAACAGAAGAAACAACAA,0.5
CUAGCCUAAGUAGGAAGUGAAAAGAUAAUUCACCAAACAAUGAUUAAUCAGAUAGAAGUUCUAGUCAAGAGGGAUAUUGUUGAAGUUACCUCUUUUAGCCUAGAUACAUG,0.326
UAUGAUUUGCUUUUGACGUCUGUCCUAGUGAUGUGUGUUGUCUGCUGGCAUGCUUGCAGCACAUGUCCAUUAAAGGUCAUUUUGUUUAUUUGUUGGCAUGCUUACAACAC,1.6
UUGACCUGGUCCCCCACGUGUGAAGUGUAGUGGCAUCCAUUUCUAAUGUAUGCAUUCAUCCAACAGAGUUAUUUAUUGGCUGGAGAUGGAAAAUCACACCACCUGACAGG,0.489
GUGUUUUGGGGGAGCUAUGAUAAGUUUUAUGGCAAACGGUUGGUAUUGUUAACUUUUUAUUGUCAUCAAAAGUUCAUAAAAGUCCUAUUAAUCCCCAUAUUCUUCUACUG,0.881
GGUCAGCUCCACAUUCUUUGUUGACGUGACACUAACGGCCAAUAAUAUGCUUCUUAAUUAUCAAAUUAUAGUUUCCCAAUUGGGAAACUAAUUGGGGGUGGGUUACAAAA,0.41
AAUGCCCCUCGCUUUUCUAAGGCCAUGUGAAAAUCACGGCACUGCCCUUAGCCUUGUGUCAUCUGCUUUUUCGUUCUGCGAUAUGCCCAGUUCCCAAAUCAAUUAUAGGU,0.242
AGGCUUAGUUGAGUGAGCUGACCAAUAUCACCCAGCCAGUAUGUGAUAAAACUGAUUCUGACCCACACAGUUUGAUUCUAGAGCCUGUUCUGACUACUGUGCUAAGGUGU,0.724
AUGGACCCAUCGAGAAUGUUGAAAAGCUUGGAAGUAUCACUUUUGAAAAAAAAAAAAAUUAUUUUGCAUUCAGCAUGGACUCGACCAGGCAUCUAUGGAGAUUAUUUUUU,0.937

# Series 4 — method: RNA Bind-n-Seq; form: RNA; matrix: in vitro; concentration: 200 nM; setting: whole 134-nt RNA, ends assumed; together with: 150 mM LiCl; baseline: input library; reading: higher = stronger binding; all molecules: 7-deaza-guanosine replaces G
# Target: Ras GTPase-activating protein-binding protein 1, full length (G3BP1, Homo sapiens, UniProt Q13283)
# Chain of UniProt Q13283 (whole entry, looked up): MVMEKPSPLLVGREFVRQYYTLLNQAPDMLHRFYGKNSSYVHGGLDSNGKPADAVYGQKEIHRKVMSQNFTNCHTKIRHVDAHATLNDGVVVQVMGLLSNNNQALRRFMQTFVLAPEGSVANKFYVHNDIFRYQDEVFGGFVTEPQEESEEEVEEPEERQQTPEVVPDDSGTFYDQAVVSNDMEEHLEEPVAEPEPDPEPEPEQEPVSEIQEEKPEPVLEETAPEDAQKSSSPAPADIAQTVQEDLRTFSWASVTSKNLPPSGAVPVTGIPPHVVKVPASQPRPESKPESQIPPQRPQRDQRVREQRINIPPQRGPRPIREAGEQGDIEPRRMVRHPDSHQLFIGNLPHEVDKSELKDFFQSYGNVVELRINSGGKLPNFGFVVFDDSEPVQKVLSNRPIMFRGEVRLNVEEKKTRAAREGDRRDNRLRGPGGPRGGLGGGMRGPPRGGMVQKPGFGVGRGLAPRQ
# All sequences stand within: GGGAGUUCUACAGUCCGACGAUC … UGGAAUUCUCGGGUGUCAAGG
Strand,log2 enrichment
UCUGCUAAAGAGAAAGGAAAAUUUGAAGAUAUGGCAAAAGCGGACAAGGCCCGUUAUGAAAGAGAAAUGAAAACCUAUAUCCCUCCCAAA,0.714
ACCAUGCAGGUGGGCAUCUUUGGGAAGUGGGGCAAGGGGGGGAUAGGGAGGGGGGUAACACUUUGGGAACAGGUGAUCCCAGGUCGUUUC,0.171
AAGUCCUGUGCUACACAUCGUAUGUACCGAAUCGGCCCCGGGCCCCGGGGCCCCGGAAAGUAUUAUGUUACGCCGUUCGGAUCUGCACUU,-1.06
CCUGUGCUACACAUCGUAUGUACCGAAUCGGUUUUUUGGGGUUUUUUGGGUUUUUUGGGGAAAGUAUUAUGUUACGCCGUUCGGAUCUGC,-0.0812
UAACUUUAGAGGAGGAUCUGAUGGAUAUGGCAGUGGACGUGGAGUUGGGGAUGGCUAUAAUGGGUAUGGAGGAGGACCUGGAGGUGGCAA,-0.344
GUCCUGUGCUACACAUCGUAUGUACCGAAUCAAACCCCCCCAAAUUUUUAAAUUUAAAAAAGUAUUAUGUUACGCCGUUCGGAUCUGCAC,1.04
GCAGGAAGUAAAAACAAAUGAAAAUGCUUCGGAUAGUGGCAGGGGUGGGGGUUGCUAAGGAAAGGGUGGGAUGGGAGUGGGUAAAGAGUU,0.153
AGUCCUGUGCUACACAUCGUAUGUACCGAAUCGGGGUGGGGAAAAAAAGGGGUGGGGAAAGUAUUAUGUUACGCCGUUCGGAUCUGCACU,0.301
UAACUUUAGACGAGGAUCUGAUGGAUAUGGCAGUGGACGUGGAUUUGGGGAUGGCUAUAAUGGGUAUGGAGGAGGACCUGGAGGUGGCAA,-0.174
UCAAGUCCUGUGCUACACAUCGUAUGUACCGAAUCGGUUUUUUUGGUUUGGAGGAAAGUAUUAUGUUACGCCGUUCGGAUCUGCACUUCC,-0.547
CUCAAGUCCUGUGCUACACAUCGUAUGUACCGAAUCGGGGCCGGGGCCGGCCGGAAAGUAUUAUGUUACGCCGUUCGGAUCUGCACUUCC,0.286

# For quick reference, copied from above (series 1):
Strand,bound/input enrichment [ratio]
GGGACUGAUUCAUUCCAAGGACAGGCCACCCCAUUUGAUGCCUGGACUGAUGACAGUAUGGAAGGGCCUAGUCAAAAUGUUGAAGCUGAGUCAAUUCAGGAUGCCAUGCAUAUGGCAGAG,0.297
GAAACAUUUAAAUUUAAAGAAGCUGUUGUUUUAGGGAGCACGGACUUUCUAGAAGAUGAUAUAGAGAAAAUUGUAGAAGAACUGGGGAAAGAGUAUAAGGGCAACGCCUACCAUCUGAUG,1.82
CUGUGUGUGCUGAAUAAAUGGCUUGUAAGAACUGUCCUCCAAGCUGUAACCCAUGCUGUUAUUAUAGUUGCUGCAAAAUGUUCUUCCUGAUAUUGAUUUUAUUUGUUCUGACUCUCCCUC,1.27
AAAGUGGACUAUGGUGAGUACAUGGAUAAAAACAAUGUGAGGCGGCAAGCAACAACAAUCAUAGCUGAUAACAUUAUAUUUCUGAGUGACCAGACGAAAGAAAAGGCAUAGAACGGAUGA,1.67
